Measured values collected from several papers.
Each numbered part is a random draw from the data of one study; scales do not carry over between parts.
Sequence of UniProt P11229 (whole entry, looked up): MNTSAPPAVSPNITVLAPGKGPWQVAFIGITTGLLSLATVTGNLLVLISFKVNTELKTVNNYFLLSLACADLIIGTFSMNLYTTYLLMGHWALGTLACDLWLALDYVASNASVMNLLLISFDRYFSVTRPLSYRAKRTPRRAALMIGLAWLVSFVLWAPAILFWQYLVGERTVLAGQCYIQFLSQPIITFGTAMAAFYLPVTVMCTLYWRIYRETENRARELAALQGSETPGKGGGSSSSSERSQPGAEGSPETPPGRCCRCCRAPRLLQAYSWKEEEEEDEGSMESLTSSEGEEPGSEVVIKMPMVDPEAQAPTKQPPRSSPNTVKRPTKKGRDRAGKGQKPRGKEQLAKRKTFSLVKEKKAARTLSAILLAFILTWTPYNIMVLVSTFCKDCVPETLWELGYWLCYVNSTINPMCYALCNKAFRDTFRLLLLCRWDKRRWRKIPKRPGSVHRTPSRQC

Study 1
Cell line: HaCaT
Concentration: 100 µM
Time: 60 h
The viability of `C[C@H](CCC(=O)O)[C@H]1CC[C@H]2[C@@H]3[C@H](O)C[C@@H]4C[C@H](O)CC[C@]4(C)[C@H]3C[C@H](O)[C@]12C` is reported as 127%.
With `O=S(=O)(O)CCSSCCS(=O)(=O)O` the viability was 143%.
The viability of `CC(=O)Nc1ccc(OC(=O)c2ccccc2OC(C)=O)cc1` is reported as 115%.
`C=CCN1CCCC1CNC(=O)c1cc2[nH]nnc2cc1OC` (stereo not shown) has a viability of 121%.
`CCCCC(C)(O)C/C=C/[C@H]1[C@H](O)CC(=O)[C@@H]1CCCCCCC(=O)OC` (mixture of isomers) has a viability of 127%.
The viability of `CC1(C)S[C@@H]2[C@H](NC(=O)C(C(=O)O)c3ccccc3)C(=O)N2[C@H]1C(=O)O` (stereo partly shown) is reported as 145%.
For `C[C@H]1C[C@@H]2[C@H]([C@@H](O)C[C@@]3(C)[C@H]2CC[C@]3(O)C(=O)CO)[C@@]2(C)C=CC(=O)C=C12`, the viability was 126%.
`COC(=O)[C@@H]1[C@H]2C[C@H]3c4[nH]c5ccccc5c4CCN3C[C@@H]2CC[C@@H]1O` gave a viability of 107%.

Study 2
Host: mouse
Matrix: microsomes or S9
Concentration: 2 µM
Time: 0.5 h
The remaining compound of `Nc1nc2n(c1C(=O)c1ccc3c(c1)CCCC3)CCC2` is reported as 12.2%.
The remaining compound of `Cc1nn(C(C)(C)C)c(C)c1S(=O)(=O)N1CC(C)OC(C)(C)C1` (stereo not shown) is reported as 2.42%.
The remaining compound of `CC1CCN(c2ccc(-c3noc(C(=O)NCCc4nc5ccccc5[nH]4)n3)cc2)CC1` is reported as 57.3%.
The remaining compound of `CC(C)c1ccc(CNC(=O)CCCCNS(=O)(=O)c2ccccc2)cc1` is reported as 4.54%.
For `CCC(=O)Nc1ccc(C(=O)OCc2ccc(C(=O)c3ccccc3)cc2)cc1`, the remaining compound was 83.2%.
`CCCn1nc(C)c(-c2cncn2CC(c2ccccc2Cl)N(C)C)c1C` (stereo not shown) has a remaining compound of 7.18%.
For `CCc1cc2c(Nc3ccc(OC)cc3OC)ncnc2s1`, the remaining compound was 2.84%.
`Cc1ccc(S(=O)(=O)n2cc(Br)c3c(N4C[C@@H](C)O[C@@H](C)C4)ncnc32)cc1` gave a remaining compound of < 1%.

Study 3
SMILES: COc1cc(C(=O)N2CCC(N3CCN(C)CC3)CC2)ccc1Nc1ncc2c(n1)N(C)c1ccccc1C(=O)N2C
For probe labelling, KiNativ profiling, refers to: TSTQEYAAkIINTK peptide; human PBMC lysate; concentration not given, Lys1 site, together with: ATP acyl phosphate probe: inhibition read 14.8%.
The inhibition was 1.8% (mouse MAP3K5/MAP3K6/MAP3K7; probe labelling, KiNativ ATP probe; mouse brain lysate; 1 µM, LYS1 site IAIkEIPER).
For NIM1 (mouse); probe labelling, KiNativ ADP probe; mouse brain lysate; 0.1 µM, LYS1 labelled site: inhibition read 0.1%.
It gave -6.3% for inhibition (human PBMC; probe labeling, inhibitor, KiNativ profiling; cell lysate; concentration not given, domain 1, LYS2 site, together with: ADP acyl-phosphate probe 0.1 µM).
For mouse JNK1/JNK2/JNK3; probe labelling, KiNativ ADP probe; mouse brain lysate; 0.1 µM, LYS2 site DLkPSNIVVK: inhibition read 1.1%.
The inhibition was -20.2% (mouse ILK; probe labelling, KiNativ ATP probe; mouse brain lysate; 1 µM, kinase domain ISMADVkFSFQCPGR).
MARK1 (mouse); probe labelling, KiNativ ADP probe; mouse brain lysate; 1 µM, LYS1 labelled site — inhibition: 1.6%.
mouse CaMK2γ; probe labelling, KiNativ ATP probe; mouse brain lysate; 1 µM, LYS1 site TSTQEYAAkIINTK — inhibition: 8.7%.

Further values, each from its own experiment
`CN([C@@H]1CCc2c(CC(=O)O)c3cc(S(C)(=O)=O)ccc3n2C1)S(=O)(=O)c1ccc(F)cc1` has an inhibition of -1.48% (Muscarinic acetylcholine receptor M1 (CHRM1, Homo sapiens, UniProt P11229); binding, radioligand binding; 10 µM).

A few entries again (study 1):
`C=CCN1CCCC1CNC(=O)c1cc2[nH]nnc2cc1OC` (stereo not shown) has a viability of 121%.
`CCCCC(C)(O)C/C=C/[C@H]1[C@H](O)CC(=O)[C@@H]1CCCCCCC(=O)OC` (mixture of isomers) has a viability of 127%.
The viability of `CC1(C)S[C@@H]2[C@H](NC(=O)C(C(=O)O)c3ccccc3)C(=O)N2[C@H]1C(=O)O` (stereo partly shown) is reported as 145%.
